Measured values gathered from unrelated publications.
Every numbered part comes from another study and shows a few of its results, in no order.
Chain of UniProt P00519 (whole entry, unmodified, looked up): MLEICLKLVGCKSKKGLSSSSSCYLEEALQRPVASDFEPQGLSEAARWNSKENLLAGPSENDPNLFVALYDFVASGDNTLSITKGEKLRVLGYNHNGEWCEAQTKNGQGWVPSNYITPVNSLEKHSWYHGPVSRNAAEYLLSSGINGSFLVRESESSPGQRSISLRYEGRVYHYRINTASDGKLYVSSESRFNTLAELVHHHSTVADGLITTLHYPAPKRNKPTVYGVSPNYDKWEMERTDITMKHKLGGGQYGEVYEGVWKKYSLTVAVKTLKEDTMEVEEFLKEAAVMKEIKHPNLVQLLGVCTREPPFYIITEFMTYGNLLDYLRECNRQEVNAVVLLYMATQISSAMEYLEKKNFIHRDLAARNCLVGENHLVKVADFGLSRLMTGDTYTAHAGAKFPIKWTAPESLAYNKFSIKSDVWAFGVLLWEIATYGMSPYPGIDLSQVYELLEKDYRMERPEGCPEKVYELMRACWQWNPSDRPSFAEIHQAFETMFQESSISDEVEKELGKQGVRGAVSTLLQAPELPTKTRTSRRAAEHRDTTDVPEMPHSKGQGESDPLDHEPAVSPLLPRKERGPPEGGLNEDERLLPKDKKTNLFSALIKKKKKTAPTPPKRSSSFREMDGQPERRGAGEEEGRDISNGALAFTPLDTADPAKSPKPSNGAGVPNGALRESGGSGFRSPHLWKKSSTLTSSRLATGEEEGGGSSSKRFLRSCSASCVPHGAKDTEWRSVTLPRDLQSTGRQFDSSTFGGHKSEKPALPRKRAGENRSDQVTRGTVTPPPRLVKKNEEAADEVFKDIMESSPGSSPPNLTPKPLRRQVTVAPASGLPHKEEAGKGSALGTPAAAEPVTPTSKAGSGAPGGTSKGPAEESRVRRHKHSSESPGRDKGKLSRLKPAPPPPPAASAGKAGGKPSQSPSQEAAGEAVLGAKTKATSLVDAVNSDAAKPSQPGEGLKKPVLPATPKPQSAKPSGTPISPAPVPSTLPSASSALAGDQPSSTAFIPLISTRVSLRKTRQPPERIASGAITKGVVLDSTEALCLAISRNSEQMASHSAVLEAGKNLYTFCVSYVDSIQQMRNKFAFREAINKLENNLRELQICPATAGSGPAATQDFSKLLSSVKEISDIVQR
Chain of UniProt P54753 (whole entry, looked up): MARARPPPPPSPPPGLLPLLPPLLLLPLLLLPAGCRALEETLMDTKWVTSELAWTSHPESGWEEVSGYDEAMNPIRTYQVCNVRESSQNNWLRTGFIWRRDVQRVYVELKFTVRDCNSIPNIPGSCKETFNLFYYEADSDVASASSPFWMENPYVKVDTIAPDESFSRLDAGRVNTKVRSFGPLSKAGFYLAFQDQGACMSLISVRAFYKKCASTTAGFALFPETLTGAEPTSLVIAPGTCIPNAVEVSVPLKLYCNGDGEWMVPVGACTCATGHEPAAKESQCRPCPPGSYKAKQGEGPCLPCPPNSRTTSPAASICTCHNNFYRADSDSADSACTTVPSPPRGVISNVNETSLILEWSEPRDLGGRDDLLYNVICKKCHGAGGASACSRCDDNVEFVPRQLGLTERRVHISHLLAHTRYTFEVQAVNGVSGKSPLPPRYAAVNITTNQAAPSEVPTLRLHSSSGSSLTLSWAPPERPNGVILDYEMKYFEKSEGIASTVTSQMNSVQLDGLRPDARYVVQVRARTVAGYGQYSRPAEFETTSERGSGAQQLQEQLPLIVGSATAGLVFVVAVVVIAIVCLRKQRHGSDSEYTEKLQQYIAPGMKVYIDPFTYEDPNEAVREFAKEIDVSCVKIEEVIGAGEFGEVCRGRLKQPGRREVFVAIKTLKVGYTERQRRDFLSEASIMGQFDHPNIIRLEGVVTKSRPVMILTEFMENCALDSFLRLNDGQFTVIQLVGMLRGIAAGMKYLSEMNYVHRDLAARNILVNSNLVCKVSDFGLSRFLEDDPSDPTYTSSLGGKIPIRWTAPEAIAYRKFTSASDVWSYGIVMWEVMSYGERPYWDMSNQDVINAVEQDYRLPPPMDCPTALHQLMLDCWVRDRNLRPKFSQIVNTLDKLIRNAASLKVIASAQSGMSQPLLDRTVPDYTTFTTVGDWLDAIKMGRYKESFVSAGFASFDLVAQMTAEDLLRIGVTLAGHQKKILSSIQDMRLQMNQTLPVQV
Chain of UniProt P31152 (whole entry, looked up): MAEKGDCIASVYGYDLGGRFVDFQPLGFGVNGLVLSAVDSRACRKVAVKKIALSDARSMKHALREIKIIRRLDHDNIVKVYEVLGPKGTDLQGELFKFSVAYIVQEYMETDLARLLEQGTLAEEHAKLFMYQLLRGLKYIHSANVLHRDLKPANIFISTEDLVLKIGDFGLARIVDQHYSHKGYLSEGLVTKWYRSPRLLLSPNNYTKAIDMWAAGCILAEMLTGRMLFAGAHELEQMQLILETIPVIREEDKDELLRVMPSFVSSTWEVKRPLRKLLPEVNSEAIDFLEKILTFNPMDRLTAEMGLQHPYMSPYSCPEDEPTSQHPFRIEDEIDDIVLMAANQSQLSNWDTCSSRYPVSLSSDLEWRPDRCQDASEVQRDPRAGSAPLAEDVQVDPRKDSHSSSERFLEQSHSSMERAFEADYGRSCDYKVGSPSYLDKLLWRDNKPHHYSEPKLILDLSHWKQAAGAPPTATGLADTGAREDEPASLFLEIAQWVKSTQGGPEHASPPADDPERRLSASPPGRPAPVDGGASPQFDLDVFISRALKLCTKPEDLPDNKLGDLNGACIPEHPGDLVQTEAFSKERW

Series 1
Target: Ras GTPase-activating protein-binding protein 1, C-terminal RGG region (G3BP1, Homo sapiens, UniProt Q13283)
Chain of UniProt Q13283 (whole entry, looked up): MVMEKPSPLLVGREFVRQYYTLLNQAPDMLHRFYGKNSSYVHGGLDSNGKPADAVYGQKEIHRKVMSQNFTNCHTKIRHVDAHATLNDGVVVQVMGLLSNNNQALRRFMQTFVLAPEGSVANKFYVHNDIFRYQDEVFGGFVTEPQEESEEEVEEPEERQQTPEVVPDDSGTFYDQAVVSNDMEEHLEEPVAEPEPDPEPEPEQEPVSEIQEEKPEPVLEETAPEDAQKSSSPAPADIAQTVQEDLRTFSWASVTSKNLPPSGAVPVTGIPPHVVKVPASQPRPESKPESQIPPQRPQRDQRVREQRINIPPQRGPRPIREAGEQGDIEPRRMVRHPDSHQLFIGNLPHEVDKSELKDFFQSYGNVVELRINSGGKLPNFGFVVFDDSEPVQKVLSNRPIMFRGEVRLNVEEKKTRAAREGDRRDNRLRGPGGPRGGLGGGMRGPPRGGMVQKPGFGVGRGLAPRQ
Method: RNA Bind-n-Seq
Molecule type: RNA
Sample: in vitro
Concentration: 1 µM
Notes: whole 134-nt RNA, ends assumed
Together with: 150 mM KCl
Relative to: input library
Direction: higher = stronger binding
Measurement: log2 enrichment
All sequences stand within: GGGAGUUCUACAGUCCGACGAUC … UGGAAUUCUCGGGUGUCAAGG
UGGGAGGUGGAUUUUGUUUAUUUUUUUAGCUCAUUUCCAGGGGUGGGAAUUUCUUUUUAAUAUGUGUCAUGAAUAAAGUUGUUUUUGAAA: 3.76
CAAGUCCUGUGCUACACAUCGUAUGUACCGAAUCGGGGAAAGGAAAGGGGAAAGGGAAAGUAUUAUGUUACGCCGUUCGGAUCUGCACUU: -0.0505
CUCAAGUCCUGUGCUACACAUCGUAUGUACCGAAUCGGGGCGGGCGGGGCGGGGAAAGUAUUAUGUUACGCCGUUCGGAUCUGCACUUCC: 2.03
AGUCCUGUGCUACACAUCGUAUGUACCGAAUCGGGUUUUUGGGUUUUUGGUUUUUGGAAAGUAUUAUGUUACGCCGUUCGGAUCUGCACU: -1.51
AGUUACUCAGUUCAUUUUGGAUAACUACAUUGAAAGAGGAAAAGGAUCUGCUUGCAGAAUAGUUUGUACUCAGCCAAGAAGAAUUAGUGC: -2.5
GGGGACGGCAAAACAGAACAGAAAGGCGGAGAUAAAAAGAGGGGUGUUAAAAGACCACGAGAAGAUCAUGGCCGUGGAUAUUUUGAGUAC: -0.209
CACAGACAACACGCACCCACACAGACACAGAGGGAAGGGGUUGGGAUGGGGACAGGGUGCACAGCAGGGCGGGGUAGAACCCCAGCCCCU: -0.926
CACAGACAACACGCACCCACACAGACACAGAGAAAAGGGGUUGGGAUGGGGACAGGGUGCACAGCAGGGCGGGGUAGGACCCCAGCCCCU: -0.423

Series 2
SMILES: CS(=O)(=O)c1cc(C2(NC(=O)c3cncc4c3cnn4-c3ccc(F)cc3)CC2)ccn1
Method: competition with immobilised ligand
Concentration: 1 µM
Measurement: remaining binding
Ephrin type-B receptor 3 (EPHB3, Homo sapiens, UniProt P54753); cell-free assay: 100%
Mitogen-activated protein kinase 4 (MAPK4, Homo sapiens, UniProt P31152); cell-free assay: 79%
Tyrosine-protein kinase ABL1, phosphorylated (ABL1, Homo sapiens, UniProt P00519, E255K); binding: 100%

Series 3
Target: Protein C-ets-1, full length (ETS1, Homo sapiens, UniProt P14921, residues 1-441)
Method: protein-binding microarray
Molecule type: hairpin DNA
Sample: in vitro
Concentration: not given
Notes: whole hairpin DNA, median over replicate spots
Relative to: not given
Direction: higher = stronger binding
Measurement: median fluorescence
Construct (chain): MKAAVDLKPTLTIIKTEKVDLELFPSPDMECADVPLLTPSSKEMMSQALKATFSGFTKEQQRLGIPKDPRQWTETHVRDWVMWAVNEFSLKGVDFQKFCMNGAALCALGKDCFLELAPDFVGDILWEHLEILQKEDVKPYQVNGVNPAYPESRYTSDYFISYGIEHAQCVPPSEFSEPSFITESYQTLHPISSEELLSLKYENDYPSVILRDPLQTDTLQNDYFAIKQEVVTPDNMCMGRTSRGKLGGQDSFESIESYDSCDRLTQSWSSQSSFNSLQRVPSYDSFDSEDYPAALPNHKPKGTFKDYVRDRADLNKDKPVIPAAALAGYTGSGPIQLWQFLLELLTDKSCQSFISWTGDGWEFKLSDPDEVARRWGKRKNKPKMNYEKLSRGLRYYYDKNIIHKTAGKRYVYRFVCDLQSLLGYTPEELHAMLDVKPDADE
GAGGCCAGTCGGAAGCGGCCTCCTGGCCGCTTCCGACTGGCCTCACACTC (5mC at 16 28): 1750 a.u.
GAGGCCAGTGGGAAGTTGCCTCCTGGCAACTTCCCACTGGCCTCACACTC: 991 a.u.
GAGGCCCGCCGGAAGTTGCCTCCTGGCAACTTCCGGCGGGCCTCACACTC: 8250 a.u.
GAGGCCAGTCGCGAGTTGCCTCCTGGCAACTCGCGACTGGCCTCACACTC: 551 a.u.
GAGGCCAGTCGCGAGTTGCCTCCTGGCAACTCGCGACTGGCCTCACACTC (5mC at 12): 551 a.u.
GAGGCCAGCCGGCGGTTGCCTCCTGGCAACCGCCGGCTGGCCTCACACTC (5mC at 13): 551 a.u.
GAGGCCAGTCGTAAGTTGCCTCCTGGCAACTTACGACTGGCCTCACACTC: 552 a.u.
GAGGCCAGTCGGAAGCTGCCTCCTGGCAGCTTCCGACTGGCCTCACACTC: 1760 a.u.

Series 4
Target: Platelet-derived growth factor receptor alpha (PDGFRA, Homo sapiens, UniProt P16234)
Chain of UniProt P16234 (whole entry, looked up): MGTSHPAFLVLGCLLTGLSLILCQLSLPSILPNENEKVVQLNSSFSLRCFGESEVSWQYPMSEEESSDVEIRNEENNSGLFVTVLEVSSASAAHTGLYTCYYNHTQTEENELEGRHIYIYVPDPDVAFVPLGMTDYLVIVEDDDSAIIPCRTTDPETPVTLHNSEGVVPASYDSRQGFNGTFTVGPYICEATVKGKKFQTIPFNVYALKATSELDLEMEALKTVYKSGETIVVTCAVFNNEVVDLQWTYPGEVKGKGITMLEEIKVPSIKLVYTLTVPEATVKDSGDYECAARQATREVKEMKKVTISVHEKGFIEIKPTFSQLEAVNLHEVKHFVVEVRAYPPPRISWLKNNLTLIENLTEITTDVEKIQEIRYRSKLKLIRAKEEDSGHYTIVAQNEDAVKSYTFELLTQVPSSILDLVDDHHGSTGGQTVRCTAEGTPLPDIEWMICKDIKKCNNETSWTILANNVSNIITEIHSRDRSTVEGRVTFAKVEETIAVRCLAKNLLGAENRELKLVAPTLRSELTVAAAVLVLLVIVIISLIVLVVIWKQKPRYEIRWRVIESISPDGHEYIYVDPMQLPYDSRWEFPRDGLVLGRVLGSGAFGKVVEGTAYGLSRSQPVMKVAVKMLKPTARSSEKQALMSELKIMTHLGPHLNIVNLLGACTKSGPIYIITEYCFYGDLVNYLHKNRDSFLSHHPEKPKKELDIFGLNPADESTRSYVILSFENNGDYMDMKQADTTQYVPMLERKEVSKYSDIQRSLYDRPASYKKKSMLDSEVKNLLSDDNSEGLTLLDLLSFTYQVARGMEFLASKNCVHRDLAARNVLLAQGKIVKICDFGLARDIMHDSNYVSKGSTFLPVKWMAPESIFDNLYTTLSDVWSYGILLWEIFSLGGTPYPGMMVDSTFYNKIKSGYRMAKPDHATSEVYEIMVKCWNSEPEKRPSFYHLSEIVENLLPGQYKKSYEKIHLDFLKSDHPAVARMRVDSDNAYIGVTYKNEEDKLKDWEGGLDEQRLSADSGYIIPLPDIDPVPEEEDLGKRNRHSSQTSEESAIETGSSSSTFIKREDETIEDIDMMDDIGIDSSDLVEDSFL
Effect on: enzyme activity
Mode: inhibitor
Concentration: 0.5 µM
Relative to: control
Measurement: remaining activity
O=C(CCCc1ccc(-c2ccccc2F)cc1)Nc1ccc(O)cc1: 96.5%
CC(C)[C@H](CO)Nc1nc(Nc2cc(N)cc(Cl)c2)c2ncn(C(C)C)c2n1: 89.4%
COc1cc2nccc(Oc3ccc(NC(=S)NC(=O)c4ccccc4C)cc3)c2cc1OC: 12.5%
CN(C)c1ccc(C=C2C(=O)Nc3ccccc32)cc1: 79.9%
Cc1cccc(-c2[nH]c(C(C)(C)C)nc2-c2ccc3c(c2)OCO3)n1: 94.1%
Nc1ncnc2n[nH]c(Nc3ccc(F)cc3)c12: 101%
COc1cc2ncnc(Nc3ccc(F)c(Cl)c3)c2cc1OCCCN1CCOCC1: 97%
CO[C@H]1C[C@@H]2CC[C@@H](C)[C@@](O)(O2)C(=O)C(=O)N2CCCC[C@H]2C(=O)O[C@H]([C@H](C)C[C@@H]2CC[C@@H](O)[C@H](OC)C2)CC(=O)[C@H](C)/C=C(\C)[C@@H](O)[C@@H](OC)C(=O)[C@H](C)C[C@H](C)/C=C/C=C/C=C/1C: 95.1%
COc1ccc(C(=O)Nc2sc3c(c2C(N)=O)CCCC3)cc1OC: 96.4%
Nc1ccc2ncnc(NCCc3ccc(Oc4ccccc4)cc3)c2c1: 98.5%
Cn1c2ccccc2c2c3c(c4c5ccccc5n(CCC#N)c4c21)CNC3=O: 83.5%
O=C1NC(=O)C(c2cn(CCCn3ccnc3)c3ccccc23)=C1Nc1ccccc1: 94.1%
COc1ccc(OC)c2c(=S)c3ccccc3[nH]c12: 85.6%
Cc1nc(-c2ccccc2)c(-c2ccncc2)o1: 96.3%

Repeated from above (series 2):
Mitogen-activated protein kinase 4 (MAPK4, Homo sapiens, UniProt P31152); cell-free assay: 79%
Ephrin type-B receptor 3 (EPHB3, Homo sapiens, UniProt P54753); cell-free assay: 100%
Tyrosine-protein kinase ABL1, phosphorylated (ABL1, Homo sapiens, UniProt P00519, E255K); binding: 100%
